# Published values pooled from the literature.
# Protocols differ between the studies behind these lines. ± marks the error that the study gave.
# tmk: Thymidylate kinase (tmk, Mycobacterium tuberculosis, UniProt P9WKE1)
# Chain of UniProt P21554 (whole entry, unmodified, looked up): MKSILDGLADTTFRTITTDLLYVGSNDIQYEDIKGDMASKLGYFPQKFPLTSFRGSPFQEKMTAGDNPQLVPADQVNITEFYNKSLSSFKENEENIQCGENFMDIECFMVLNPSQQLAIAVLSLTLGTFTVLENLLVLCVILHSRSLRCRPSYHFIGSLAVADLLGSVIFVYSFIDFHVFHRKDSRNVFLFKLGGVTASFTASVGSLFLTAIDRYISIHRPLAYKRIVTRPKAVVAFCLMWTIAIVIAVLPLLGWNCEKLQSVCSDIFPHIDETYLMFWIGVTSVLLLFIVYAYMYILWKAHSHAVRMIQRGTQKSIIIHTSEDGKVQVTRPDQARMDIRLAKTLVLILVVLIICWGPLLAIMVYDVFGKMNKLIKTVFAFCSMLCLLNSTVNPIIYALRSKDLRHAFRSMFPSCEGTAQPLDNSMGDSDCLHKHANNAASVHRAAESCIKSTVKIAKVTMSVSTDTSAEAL
# Chain of UniProt P9WKE1 (whole entry, looked up): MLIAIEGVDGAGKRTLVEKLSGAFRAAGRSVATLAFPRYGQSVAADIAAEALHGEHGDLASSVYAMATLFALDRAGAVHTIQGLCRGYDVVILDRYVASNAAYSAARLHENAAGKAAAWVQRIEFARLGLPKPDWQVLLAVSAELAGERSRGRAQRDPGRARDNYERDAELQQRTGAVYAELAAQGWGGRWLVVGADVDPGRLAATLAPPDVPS
# Chain of UniProt P45974 (whole entry, looked up): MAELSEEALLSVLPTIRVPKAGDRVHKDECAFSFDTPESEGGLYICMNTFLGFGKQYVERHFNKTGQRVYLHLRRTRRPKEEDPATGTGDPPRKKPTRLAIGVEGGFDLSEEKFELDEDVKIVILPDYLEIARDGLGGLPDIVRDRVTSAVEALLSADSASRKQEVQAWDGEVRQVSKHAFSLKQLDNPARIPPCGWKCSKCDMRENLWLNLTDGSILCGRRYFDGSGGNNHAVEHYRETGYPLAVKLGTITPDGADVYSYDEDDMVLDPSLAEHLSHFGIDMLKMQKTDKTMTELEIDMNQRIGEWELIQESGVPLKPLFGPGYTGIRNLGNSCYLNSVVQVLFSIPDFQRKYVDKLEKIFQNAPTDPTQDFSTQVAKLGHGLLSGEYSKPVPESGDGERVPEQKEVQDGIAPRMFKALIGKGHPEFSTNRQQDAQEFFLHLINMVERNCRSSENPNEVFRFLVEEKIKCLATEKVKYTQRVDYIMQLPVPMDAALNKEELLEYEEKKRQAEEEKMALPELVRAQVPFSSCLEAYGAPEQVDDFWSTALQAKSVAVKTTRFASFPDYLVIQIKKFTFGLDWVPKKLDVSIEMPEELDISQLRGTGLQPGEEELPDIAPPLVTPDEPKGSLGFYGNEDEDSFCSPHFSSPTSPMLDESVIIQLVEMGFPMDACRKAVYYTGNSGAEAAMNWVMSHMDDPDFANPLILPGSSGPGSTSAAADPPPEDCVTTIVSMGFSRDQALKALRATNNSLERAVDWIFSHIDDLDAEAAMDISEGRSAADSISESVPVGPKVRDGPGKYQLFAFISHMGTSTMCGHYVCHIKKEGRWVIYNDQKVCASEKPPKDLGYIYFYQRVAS
# Chain of UniProt Q80YA3 (whole entry, looked up): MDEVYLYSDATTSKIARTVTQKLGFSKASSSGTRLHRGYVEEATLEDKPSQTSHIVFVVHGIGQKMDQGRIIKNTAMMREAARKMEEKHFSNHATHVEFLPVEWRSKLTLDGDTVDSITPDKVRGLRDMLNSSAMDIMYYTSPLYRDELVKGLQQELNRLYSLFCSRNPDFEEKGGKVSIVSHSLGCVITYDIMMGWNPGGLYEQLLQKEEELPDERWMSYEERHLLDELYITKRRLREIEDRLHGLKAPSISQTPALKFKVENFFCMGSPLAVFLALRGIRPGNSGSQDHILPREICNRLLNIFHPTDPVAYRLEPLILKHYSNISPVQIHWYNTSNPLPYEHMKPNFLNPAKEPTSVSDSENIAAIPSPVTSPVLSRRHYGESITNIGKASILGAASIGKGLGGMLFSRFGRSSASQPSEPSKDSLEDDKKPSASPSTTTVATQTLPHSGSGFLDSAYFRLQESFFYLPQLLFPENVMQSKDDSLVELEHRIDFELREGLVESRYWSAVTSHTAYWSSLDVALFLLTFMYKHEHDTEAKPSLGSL
# Chain of UniProt P36507 (whole entry, looked up): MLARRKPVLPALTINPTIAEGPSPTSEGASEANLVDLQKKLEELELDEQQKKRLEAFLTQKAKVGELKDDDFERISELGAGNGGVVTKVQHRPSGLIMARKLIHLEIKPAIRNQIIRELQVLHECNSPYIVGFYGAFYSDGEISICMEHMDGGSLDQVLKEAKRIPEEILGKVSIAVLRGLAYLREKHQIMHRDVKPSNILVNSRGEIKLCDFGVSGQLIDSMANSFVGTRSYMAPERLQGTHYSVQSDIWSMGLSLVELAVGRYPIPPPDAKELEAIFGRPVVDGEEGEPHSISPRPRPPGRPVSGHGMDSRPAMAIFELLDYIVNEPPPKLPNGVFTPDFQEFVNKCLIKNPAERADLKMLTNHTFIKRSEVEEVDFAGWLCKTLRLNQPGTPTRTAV
# Chain of UniProt P15735 (whole entry, looked up): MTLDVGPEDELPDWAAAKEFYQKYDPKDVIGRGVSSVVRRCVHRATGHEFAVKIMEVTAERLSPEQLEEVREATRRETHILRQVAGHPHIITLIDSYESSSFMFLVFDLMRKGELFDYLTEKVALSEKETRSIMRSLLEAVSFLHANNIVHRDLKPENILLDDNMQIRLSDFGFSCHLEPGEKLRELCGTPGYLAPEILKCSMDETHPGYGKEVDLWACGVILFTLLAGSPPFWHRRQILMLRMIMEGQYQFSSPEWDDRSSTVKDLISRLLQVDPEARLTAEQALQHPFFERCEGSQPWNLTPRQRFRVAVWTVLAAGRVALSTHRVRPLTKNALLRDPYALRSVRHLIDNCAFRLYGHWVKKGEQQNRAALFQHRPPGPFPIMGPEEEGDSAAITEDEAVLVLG
# Chain of UniProt Q00535 (whole entry, looked up): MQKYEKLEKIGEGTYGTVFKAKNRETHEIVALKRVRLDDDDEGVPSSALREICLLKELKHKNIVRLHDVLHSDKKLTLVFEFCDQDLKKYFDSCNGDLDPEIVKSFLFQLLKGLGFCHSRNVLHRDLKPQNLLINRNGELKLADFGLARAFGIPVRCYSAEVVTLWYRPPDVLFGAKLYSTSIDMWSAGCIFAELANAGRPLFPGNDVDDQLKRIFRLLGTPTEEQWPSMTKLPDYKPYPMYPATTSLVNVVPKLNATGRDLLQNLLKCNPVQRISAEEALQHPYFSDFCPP
# Chain of UniProt P41586 (whole entry, unmodified, looked up): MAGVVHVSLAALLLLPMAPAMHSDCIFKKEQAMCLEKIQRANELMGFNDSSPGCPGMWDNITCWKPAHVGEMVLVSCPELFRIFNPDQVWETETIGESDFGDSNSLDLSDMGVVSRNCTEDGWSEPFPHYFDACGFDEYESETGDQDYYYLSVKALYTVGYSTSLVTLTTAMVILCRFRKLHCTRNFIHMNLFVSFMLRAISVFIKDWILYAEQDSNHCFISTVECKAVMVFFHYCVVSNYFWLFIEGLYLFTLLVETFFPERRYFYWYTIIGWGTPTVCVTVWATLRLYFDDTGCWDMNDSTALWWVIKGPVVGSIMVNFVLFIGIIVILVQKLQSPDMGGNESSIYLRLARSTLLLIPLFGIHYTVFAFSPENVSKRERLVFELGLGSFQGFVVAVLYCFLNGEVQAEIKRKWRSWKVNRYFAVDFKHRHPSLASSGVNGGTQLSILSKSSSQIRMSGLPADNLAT
# Chain of UniProt P45983 (whole entry, looked up): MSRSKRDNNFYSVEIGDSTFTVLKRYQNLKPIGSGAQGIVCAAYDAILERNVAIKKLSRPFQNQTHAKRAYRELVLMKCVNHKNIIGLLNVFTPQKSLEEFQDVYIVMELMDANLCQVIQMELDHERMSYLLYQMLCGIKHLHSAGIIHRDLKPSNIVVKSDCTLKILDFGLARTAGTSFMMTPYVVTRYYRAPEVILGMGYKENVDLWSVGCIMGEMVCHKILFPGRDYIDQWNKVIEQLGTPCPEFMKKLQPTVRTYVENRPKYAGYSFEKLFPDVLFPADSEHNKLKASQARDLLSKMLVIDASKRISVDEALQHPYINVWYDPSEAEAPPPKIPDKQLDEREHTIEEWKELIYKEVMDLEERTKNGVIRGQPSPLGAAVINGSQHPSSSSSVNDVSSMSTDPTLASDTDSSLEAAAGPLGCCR
# Chain of UniProt Q08881 (whole entry, looked up): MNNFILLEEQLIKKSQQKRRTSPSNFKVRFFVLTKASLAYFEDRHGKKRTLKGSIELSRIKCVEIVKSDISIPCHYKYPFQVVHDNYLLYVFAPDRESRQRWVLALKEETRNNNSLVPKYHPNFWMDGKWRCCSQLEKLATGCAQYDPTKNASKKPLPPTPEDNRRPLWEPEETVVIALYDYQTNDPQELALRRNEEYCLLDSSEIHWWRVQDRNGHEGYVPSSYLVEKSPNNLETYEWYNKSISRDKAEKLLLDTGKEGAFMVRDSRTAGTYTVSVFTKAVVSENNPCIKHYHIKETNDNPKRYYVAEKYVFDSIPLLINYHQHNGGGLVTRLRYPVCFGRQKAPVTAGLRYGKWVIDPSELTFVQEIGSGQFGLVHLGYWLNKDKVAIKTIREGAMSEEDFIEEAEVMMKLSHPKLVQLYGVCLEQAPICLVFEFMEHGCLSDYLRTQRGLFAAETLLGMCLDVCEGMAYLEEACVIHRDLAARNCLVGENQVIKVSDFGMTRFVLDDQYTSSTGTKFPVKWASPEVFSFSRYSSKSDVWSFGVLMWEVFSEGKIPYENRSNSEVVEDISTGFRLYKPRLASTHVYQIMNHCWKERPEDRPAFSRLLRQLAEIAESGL
SMILES,target or system,assay,test system,setting,how to read,endpoint,value
COc1ccc(CC2C(=O)NC(=O)N(c3cccc(Cl)c3)C2=O)cc1 (stereo not drawn),"Ubiquitin carboxyl-terminal hydrolase 5 (USP5, Homo sapiens, UniProt P45974)","enzyme activity, inhibitor",,17 µM,,inhibition,66%
COc1ccccc1C(C[N+](=O)[O-])c1c(-c2ccccc2)[nH]c2ccccc12 (stereo not drawn),"Cannabinoid receptor 1 (CNR1, Homo sapiens, UniProt P21554, I245F)","Gαi1-γ2 dissociation, BRET",,,,Emax,90 ± 11.9%
O=C(NC1CCN(c2ncnc3[nH]cnc23)CC1)c1cccc(NS(=O)(=O)c2ccc(C(F)(F)F)cc2)c1,"Replicase polyprotein 1ab, nsp14 (rep, Human coronavirus 229E, UniProt P0C6X1)",enzyme activity,,0.04883 µM,,inhibition,1.74%
O=C1NC(=O)c2c1c1cc(F)c[n+]3c1c1c2c2cc(O)ccc2[n]1[Ru-4]312([N]=C=S)[S+]3CC[S+]1CC[S+]2CC3 (stereo not drawn),"Phosphorylase b kinase gamma catalytic chain, liver/testis isoform (PHKG2, Homo sapiens, UniProt P15735)",enzyme activity,,"100 nM, human enzyme, added: 10 µM ATP",reference: untreated,remaining activity,93%
CC(C)CC(O)(CC(C)C)c1cn(C(=O)N2CCCC2)nn1,"Phospholipase DDHD1 (Ddhd1, Mus musculus, UniProt Q80YA3)","probe labelling, inhibitor, competitive ABPP-SILAC, measured: Ddhd1",mouse T cells,"concentration not given, 4 h, protein level","reference: treated over DMSO cells, lower = stronger inhibition",median SILAC activity ratio,1.22
CCCCCn1cc(C(=O)c2ccc3ccccc3c2)c2ccccc21,"Cannabinoid receptor 1 (CNR1, Homo sapiens, UniProt P21554, F170A)","Gαi1 engagement, agonist, BRET",,,reference: reference agonist at wild-type CB1,Emax,26.9 ± 5.1%
Cc1sc2c(c1C)C(c1ccc(Cl)cc1)=N[C@@H](CC(=O)OC(C)(C)C)c1nnc(C)n1-2,"Bromodomain testis-specific protein, BD1 (BRDT, Homo sapiens, UniProt Q58F21)",isothermal titration calorimetry,,"15 °C, reverse titration",,ΔG,-8.3 kcal/mol
CN(C)[C@H]1C[C@@]23CC[C@@]4(O2)C(=CC[C@]2(C)[C@@H](c5ccc6ccncc6c5)CC[C@H]24)C=C3[C@@H](O)[C@@H]1O,"Cyclin-dependent kinase 5 (CDK5, Homo sapiens, UniProt Q00535)","ATP probe labelling, inhibitor, KiNativ profiling",,0.1 µM,,inhibition,4.3%
CS(C)(=O)=Nc1ccc(-c2ccc(-c3nc4cc(O[C@@H]5CO[C@H]6[C@@H]5OC[C@H]6O)[nH]c4cc3F)cc2)cc1,"Mitogen-activated protein kinase 8 (MAPK8, Homo sapiens, UniProt P45983)","enzyme activity, inhibitor",,10 µM,,inhibition,10%
Nc1ncnc2c1c(-c1ccc(Oc3ccccc3)cc1)nn2C1CCCC1,"Proto-oncogene tyrosine-protein kinase Src (SRC, Gallus gallus, UniProt P00523)",,,concentration not given,,bound fraction,85%
Cc1ccc2c(C(C[N+](=O)[O-])c3cccs3)c(-c3ccccc3)[nH]c2c1 (stereo not drawn),"Cannabinoid receptor 1 (CNR1, Homo sapiens, UniProt P21554, L165A)","β-arrestin recruitment, agonist, luciferase",,,,Emax,64.5%
CC[C@H](C)[C@H](NC(=O)[C@H](CO)NC(=O)[C@H](CC(N)=O)NC(=O)[C@H](CC(C)C)NC(=O)[C@H](Cc1ccc(O)cc1)NC(=O)[C@H](CCCCN)NC(=O)[C@H](CCCCN)NC(=O)[C@@H](NC(=O)[C@H](C)NC(=O)[C@H](CCSC)NC(=O)[C@H](CCC(N)=O)NC(=O)[C@H](CCCCN)NC(=O)[C@H](CCCNC(=N)N)NC(=O)[C@H](CC(C)C)NC(=O)[C@H](CCCNC(=N)N)NC(=O)[C@@H](NC(=O)[C@H](Cc1ccc(O)cc1)NC(=O)[C@H](CC(N)=O)NC(=O)[C@H](CC(=O)O)NC(=O)[C@@H](NC(=O)[C@H](Cc1ccccc1)NC(=O)[C@@H](NC(=O)[C@H](C)NC(=O)[C@H](CC(=O)O)NC(=O)[C@H](CO)NC(=O)[C@@H](N)Cc1c[nH]cn1)C(C)C)[C@@H](C)O)[C@@H](C)O)C(C)C)C(=O)N[C@@H](CC(C)C)C(=O)N[C@@H](CC(N)=O)C(N)=O,"Pituitary adenylate cyclase-activating polypeptide type I receptor (ADCYAP1R1, Homo sapiens, UniProt P41586, del89-109)","calcium mobilization, agonist, Fluo-8 AM",COS-7,AUC over 2 min,,Emax,69 ± 3%
CCOC(=O)C1=C(C)NC(=NN=C2C(=O)Nc3ccc(C)cc32)NC1c1ccc(F)cc1 (stereo not drawn),tmk,"enzyme activity, inhibitor, absorbance",,0.1 µg/mL,,inhibition,52.7%
O=C1NC2(CC2)COc2ncc(F)cc2[C@H]2COCCN2c2ccn3ncc1c3n2,,,"Sprague-Dawley rat, male, plasma","oral, 20 mg/kg/day, end of treatment, 4-week repeated-dose toxicity",,prothrombin time,8.8 ± 0.3 s
Nc1ccc(/C=C/C(=O)N2CCc3c(oc4c(-c5ccc(F)cc5)cc(-c5ccc(C(=O)N6CCC(F)(F)CC6)cn5)cc34)C2)cn1,"Dual specificity mitogen-activated protein kinase kinase 2 (MAP2K2, Homo sapiens, UniProt P36507)","binding, competition with immobilised ligand",,1 µM,,remaining binding,86%
CCCCCn1cc(C(=O)c2cccc3ccccc23)c2ccccc21,"Cannabinoid receptor 1 (CNR1, Homo sapiens, UniProt P21554, H178A)","Gαi1 engagement, agonist, BRET",,,reference: reference agonist at wild-type CB1,Emax,62.6 ± 2.9%
CC(C)[C@H]1NC(=O)C[C@H]2/C=C/CCSSC[C@@H](NC1=O)C(=O)N[C@H](Cc1cccc3ccccc13)C(=O)NCC(=O)O2,"Tyrosine-protein kinase ITK/TSK (ITK, Homo sapiens, UniProt Q08881)","enzyme activity, inhibitor",,10 µM,,inhibition,7.5%
CCOC(=O)C1=C(C)NC(=NN=C2C(=O)Nc3ccccc32)NC1c1ccc(F)cc1 (stereo not drawn),tmk,"enzyme activity, inhibitor, absorbance",,0.01 µg/mL,,inhibition,32.7%

# Excerpt of the above:
SMILES,target or system,assay,test system,setting,how to read,endpoint,value
CC[C@H](C)[C@H](NC(=O)[C@H](CO)NC(=O)[C@H](CC(N)=O)NC(=O)[C@H](CC(C)C)NC(=O)[C@H](Cc1ccc(O)cc1)NC(=O)[C@H](CCCCN)NC(=O)[C@H](CCCCN)NC(=O)[C@@H](NC(=O)[C@H](C)NC(=O)[C@H](CCSC)NC(=O)[C@H](CCC(N)=O)NC(=O)[C@H](CCCCN)NC(=O)[C@H](CCCNC(=N)N)NC(=O)[C@H](CC(C)C)NC(=O)[C@H](CCCNC(=N)N)NC(=O)[C@@H](NC(=O)[C@H](Cc1ccc(O)cc1)NC(=O)[C@H](CC(N)=O)NC(=O)[C@H](CC(=O)O)NC(=O)[C@@H](NC(=O)[C@H](Cc1ccccc1)NC(=O)[C@@H](NC(=O)[C@H](C)NC(=O)[C@H](CC(=O)O)NC(=O)[C@H](CO)NC(=O)[C@@H](N)Cc1c[nH]cn1)C(C)C)[C@@H](C)O)[C@@H](C)O)C(C)C)C(=O)N[C@@H](CC(C)C)C(=O)N[C@@H](CC(N)=O)C(N)=O,"Pituitary adenylate cyclase-activating polypeptide type I receptor (ADCYAP1R1, Homo sapiens, UniProt P41586, del89-109)","calcium mobilization, agonist, Fluo-8 AM",COS-7,AUC over 2 min,,Emax,69 ± 3%
CCOC(=O)C1=C(C)NC(=NN=C2C(=O)Nc3ccc(C)cc32)NC1c1ccc(F)cc1 (stereo not drawn),tmk,"enzyme activity, inhibitor, absorbance",,0.1 µg/mL,,inhibition,52.7%
